# Results of several laboratories.
# Numbered parts are unrelated; each lists some results of a single study.
# Sequence of UniProt Q9NPD8 (whole entry, looked up): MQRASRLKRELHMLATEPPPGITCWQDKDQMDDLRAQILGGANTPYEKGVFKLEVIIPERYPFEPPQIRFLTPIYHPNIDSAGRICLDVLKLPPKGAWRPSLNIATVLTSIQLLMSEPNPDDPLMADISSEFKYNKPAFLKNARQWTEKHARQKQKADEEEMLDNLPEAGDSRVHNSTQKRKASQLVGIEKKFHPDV
# Sequence of UniProt P61081 (whole entry, looked up): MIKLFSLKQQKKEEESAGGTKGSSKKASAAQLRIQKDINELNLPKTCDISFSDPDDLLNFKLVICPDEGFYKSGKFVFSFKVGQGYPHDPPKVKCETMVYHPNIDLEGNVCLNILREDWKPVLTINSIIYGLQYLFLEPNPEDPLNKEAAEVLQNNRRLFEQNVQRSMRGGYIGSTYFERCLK
# Sequence of UniProt Q7Z7E8 (whole entry, looked up): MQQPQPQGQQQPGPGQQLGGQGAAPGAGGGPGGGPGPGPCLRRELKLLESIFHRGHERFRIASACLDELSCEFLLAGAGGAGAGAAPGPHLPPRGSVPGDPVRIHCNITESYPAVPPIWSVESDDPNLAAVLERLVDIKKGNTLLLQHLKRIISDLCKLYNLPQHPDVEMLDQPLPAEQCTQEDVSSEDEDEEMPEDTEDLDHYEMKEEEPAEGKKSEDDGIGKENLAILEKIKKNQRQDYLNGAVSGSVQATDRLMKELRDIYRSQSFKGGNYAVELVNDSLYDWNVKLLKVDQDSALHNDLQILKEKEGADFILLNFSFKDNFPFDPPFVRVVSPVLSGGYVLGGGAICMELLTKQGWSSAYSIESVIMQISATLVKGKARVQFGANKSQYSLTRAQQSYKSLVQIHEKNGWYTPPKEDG

# Series 1
# Target: Interferon regulatory factor 3, full length, phosphomimetic (IRF3, Homo sapiens, UniProt Q14653, residues 1-427, S386D/S396D/S398D/S402D/T404D/S405D)
# Technique: protein-binding microarray
# Form: double-stranded DNA, one strand shown
# Medium: in vitro
# Tested at: 2540 nM top
# Setting: 60-bp whole probe
# Together with: salmon DNA 0.4 mg/ml
# Relative to: random background probes
# Reading: higher = stronger binding
# Shared flanks, not repeated: GCCTAGCAC … GTGCTAGGTCTTGATTCGCTTGACGCTGCTG
# Residues (chain): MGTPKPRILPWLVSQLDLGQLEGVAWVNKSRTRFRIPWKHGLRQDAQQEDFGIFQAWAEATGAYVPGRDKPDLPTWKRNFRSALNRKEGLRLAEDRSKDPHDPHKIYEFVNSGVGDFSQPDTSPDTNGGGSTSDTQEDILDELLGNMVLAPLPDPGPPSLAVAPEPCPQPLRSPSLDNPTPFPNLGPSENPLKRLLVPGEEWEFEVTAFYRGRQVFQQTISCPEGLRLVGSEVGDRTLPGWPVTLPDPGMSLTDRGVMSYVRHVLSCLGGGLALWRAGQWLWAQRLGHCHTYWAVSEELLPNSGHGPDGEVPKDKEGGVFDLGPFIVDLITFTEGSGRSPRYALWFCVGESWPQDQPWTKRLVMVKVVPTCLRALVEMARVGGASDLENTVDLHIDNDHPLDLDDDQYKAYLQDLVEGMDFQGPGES
Sequence,fitted relative affinity
CATCTCGGGCCGCCGGGCCG,2.25 z-score
CACCAGCGAGGGCCCGGGAG,-0.907 z-score
GACGGTTTCGGTCTCCGGAC,8.12 z-score
GCCGGACTGCTTCTCCTGAC,0.072 z-score
TTAGGTCTCCTTTTCTTTTA,4.89 z-score
TCAATTGTGGATCTTGCACT,-0.011 z-score
TCATTTTTTTTCTTTAAACT,1.55 z-score
GAGGGTTTCGGACTGGGGAC,2.52 z-score

# Series 2
# Target: RNA binding protein fox-1 homolog 2, RRM domain, GST-SBP tag (RBFOX2, Homo sapiens, UniProt O43251-10, residues 100-194)
# Technique: RNA Bind-n-Seq
# Form: RNA
# Medium: in vitro
# Tested at: 365 nM
# Setting: natural RNA segment, single round, ends assumed
# Relative to: no-protein control
# Reading: higher = stronger binding
# Construct (chain): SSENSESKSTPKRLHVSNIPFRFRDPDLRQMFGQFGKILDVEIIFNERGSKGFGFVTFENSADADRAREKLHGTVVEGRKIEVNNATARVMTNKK
Sequence,RBNS enrichment (R)
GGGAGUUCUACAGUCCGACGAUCUUGACGUCACACCCACAGGUGAAACAGCCCGAAGUCAAGGCCUUGCUAGUAAAUGGAGCUUUGUACAUAGUCAUUGUGAUGUCUUGGCUGCCCGGACACCACGUAAACAUUGGAAUUCUCGGGUGCCAA,2.17
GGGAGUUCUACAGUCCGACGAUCGUGGUCCCACCAUUGCCUGCAGAUGUCCUUCCUCUGUUCACAGUUAGGUUUAGUGAGCAUUUCAUGUCAGGGAGCCUCUGGCCAGUGUCUCUGGGAGGUCACUAAUCUACUGGAAUUCUCGGGUGCCAA,0.793
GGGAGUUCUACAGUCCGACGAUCAAACUGCCCCUUCCACUAGGACUGAGUCUGGGUGUGUGUGAGAGUGUGAGGGAACAUGCCCUGCCUUAGAGGGCUGCCACUGAAGCUGGGCCUCAUAUGUUCCAUGAGGAUGGAAUUCUCGGGUGCCAA,0.719
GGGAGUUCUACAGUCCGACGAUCUUAUAUUUUCAAACAUGGCAAGUUAAAUAUAAAUUCAUUUAAAUAUAUAGUUUUGUACUUUUCUACCAUGUAAAUGUGCAAUGUAUAUAAAAGUUAUAAUGUGUAUUUGUUGGAAUUCUCGGGUGCCAA,0.942
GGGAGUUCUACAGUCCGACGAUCCAUGUCUCCAUAAGACAGGCCCACUAGAAACACCGUUCAGAACCAUAGAGAAGCCAUGGUUUCUGCUUCUCUCCAGGAGUCAGGCUUGCCACUCCAGCUGGGCCGGUGUGUGGAAUUCUCGGGUGCCAA,0.306
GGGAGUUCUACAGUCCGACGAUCUGUUUGUGUCCUUUUACCCUAAAAUAUAUGAAGGCUUCCUUUUCAAGAUUUUUUUAUAAGAAGUUCCUACAGAAAGAAUAUUUGUGGGAAACCUCCCUUUCACUAACUUCUGGAAUUCUCGGGUGCCAA,0.525
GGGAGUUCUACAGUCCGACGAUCAGAGUCACAAUGCAACCUAAAGUAGUUCAUGUAAGAAACAGAAUAUUUUGUCCUUUCUUCUCAUACUAAAGUGGAUCAUAGAAAAGUAAAAUAAAUUAUUUGAAAAAUGAUGGAAUUCUCGGGUGCCAA,0.538
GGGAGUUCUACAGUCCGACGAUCGGAUGUGAGAAAUGUAAAUUUUAUAACAGCAGUAUUUAUCCUGGUUUAAUUCUAAUACGAUGUCAUGUUAAUUUCAUGUUGUGAUUAAUAAAAGCAUUUUUUCUUCACUCUGGAAUUCUCGGGUGCCAA,0.434
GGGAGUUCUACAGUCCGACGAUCAGUCCCAGCUGAGGCACGAUAAUUGCUUGAACCCGGGGGGUGGAGGUUGCAGUGAGCUGAGAUUGCACCACUGUACUCCAACCUGGGCGACAGAGCAAGACUGUGUCUCAUGGAAUUCUCGGGUGCCAA,0.336
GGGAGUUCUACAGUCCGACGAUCGUCAGUCUUAAUUCCCAUGCCAAAGGACAAACAGGUGUGACAUUUGGAUAGAUGAAUACUGGGAUUGGCUCUGGAGCAUGUGUUUUGAGUUGAACCUUGCAGUCCUUUCUUGGAAUUCUCGGGUGCCAA,2.46
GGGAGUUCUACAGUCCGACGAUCGAUUAAAAACUUCAAAUGAUGGAAAAAGAGAUCUCUUGUGAAACGAAACGCCCCGUGUUAAUAACUUGGUCUGAAAUUGUUUUUAUGAGCCGGGCCCCCUGUGCCUCUAGUGGAAUUCUCGGGUGCCAA,0.621
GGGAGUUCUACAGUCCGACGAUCUGCAUUAUUUAAAAUGUUCAAAUUGAAUAGAUUAAAAAGUUUUUAAAUGCUAUUGCAUCAUAUAAUUUGCUAUUCAUCCACUAUGGCAUUGCAUAUCAAUCAGUUAAUACUGGAAUUCUCGGGUGCCAA,0.46

# Series 3
# Target: Histone acetyltransferase KAT6A, winged helix 2, GST fusion (KAT6A, Homo sapiens, UniProt Q92794, residues 85-181)
# Technique: protein binding microarray
# Form: double-stranded DNA, one strand shown
# Medium: in vitro
# Tested at: not given
# Setting: 8-mer, flanks averaged, mean of 2 arrays, mostly near background
# Relative to: not given
# Reading: higher = stronger binding
# Construct (chain): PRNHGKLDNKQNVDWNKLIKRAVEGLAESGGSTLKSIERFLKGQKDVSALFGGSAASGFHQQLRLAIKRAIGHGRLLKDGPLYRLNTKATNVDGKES
Sequence,E-score
AACTCAGC,-0.000625
ATTGTGTA,0.00777
GGGTTCAC,0.108
AAGTTTGA,-0.13
CATTGGCC,-0.239
CTCCCACA,0.0192
AACGATAT,-0.0182
GCTGTCTA,-0.0215
GAAGCAGC,0.14
AGACGTCC,-0.194
CCTCGCAC,0.0783
ACGATAAT,-0.00483

# Series 4
# Molecule: B1 (ZMYND11 RING domain)
# Technique: yeast two-hybrid
# Medium: yeast
# Setting: mostly zero background
# Relative to: not given
# Reading: higher = stronger interaction
# B1: ZMYND11 RING domain (UniProt Q15326); chain DEIDWETENHDWYCFECHLPGEVLICDLCFRVYHSKCLSDEFRLRDSSSPWQCPVCRSIKKKNTNKQEM
target,lacZ reporter activity
UBE2M UBC core domain (UniProt P61081),0
UBE2T UBC core domain (UniProt Q9NPD8),0
UBE2Q1 UBC core domain (UniProt Q7Z7E8),0

# For quick reference, copied from above (series 2):
Sequence,RBNS enrichment (R)
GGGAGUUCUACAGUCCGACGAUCGUGGUCCCACCAUUGCCUGCAGAUGUCCUUCCUCUGUUCACAGUUAGGUUUAGUGAGCAUUUCAUGUCAGGGAGCCUCUGGCCAGUGUCUCUGGGAGGUCACUAAUCUACUGGAAUUCUCGGGUGCCAA,0.793
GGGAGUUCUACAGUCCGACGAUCAAACUGCCCCUUCCACUAGGACUGAGUCUGGGUGUGUGUGAGAGUGUGAGGGAACAUGCCCUGCCUUAGAGGGCUGCCACUGAAGCUGGGCCUCAUAUGUUCCAUGAGGAUGGAAUUCUCGGGUGCCAA,0.719
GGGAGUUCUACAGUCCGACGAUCUUAUAUUUUCAAACAUGGCAAGUUAAAUAUAAAUUCAUUUAAAUAUAUAGUUUUGUACUUUUCUACCAUGUAAAUGUGCAAUGUAUAUAAAAGUUAUAAUGUGUAUUUGUUGGAAUUCUCGGGUGCCAA,0.942
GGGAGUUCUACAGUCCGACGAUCCAUGUCUCCAUAAGACAGGCCCACUAGAAACACCGUUCAGAACCAUAGAGAAGCCAUGGUUUCUGCUUCUCUCCAGGAGUCAGGCUUGCCACUCCAGCUGGGCCGGUGUGUGGAAUUCUCGGGUGCCAA,0.306
